Measurements pooled from the literature.
Compare with care: the assays were run in different laboratories. ± gives the spread as reported.
Target: Muscarinic acetylcholine receptor M4 (CHRM4, Homo sapiens, UniProt P08173)
Chain of UniProt P08173 (whole entry, looked up): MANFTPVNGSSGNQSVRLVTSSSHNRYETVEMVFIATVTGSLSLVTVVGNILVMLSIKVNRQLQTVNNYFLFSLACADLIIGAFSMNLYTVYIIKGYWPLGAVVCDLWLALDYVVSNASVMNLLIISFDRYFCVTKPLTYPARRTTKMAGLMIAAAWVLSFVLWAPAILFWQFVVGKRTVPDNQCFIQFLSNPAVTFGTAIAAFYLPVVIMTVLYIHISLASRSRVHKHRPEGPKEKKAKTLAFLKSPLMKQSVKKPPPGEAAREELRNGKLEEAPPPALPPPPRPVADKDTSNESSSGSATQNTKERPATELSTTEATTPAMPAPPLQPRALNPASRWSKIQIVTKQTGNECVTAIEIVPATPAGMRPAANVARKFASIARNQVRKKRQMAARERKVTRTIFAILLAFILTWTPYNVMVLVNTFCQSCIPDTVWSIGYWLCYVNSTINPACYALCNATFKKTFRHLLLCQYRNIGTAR

SMILES	test	system	conditions	how to read	quantity	value
C=CCn1c(=O)c2ccccc2n2c(SC3CCOC3=O)nnc12 (stereo not shown)	receptor activation, agonist	–	concentration not given, 16 h	–	Emax	114 ± 4%
COc1ccc(C(=O)Nc2c(-c3cccs3)nc3ccccn23)cc1	ligand displacement, radioligand	–	10 µM	–	inhibition	< 50%
C=CCn1c(=O)c2ccccc2n2c(SC(C(=O)OCC)c3ccccc3)nnc12 (stereo not shown)	receptor activation, agonist	–	concentration not given, 16 h	–	Emax	113 ± 1%
COc1ccc(S(=O)(=O)N2CCc3ccccc3C2)cc1N1CCN(C(=O)c2ccc(F)cc2C(F)(F)F)CC1	ligand displacement, radioligand	–	1 µM	–	inhibition	12.3%
CCCCCCOc1ccc(C(=O)OCC[N+]2(C)CC=CCC2)cc1 (stereo not shown)	–	membranes	1 µM, 15 h, no carbachol	relative to: control	basal binding	1.04 ± 0.03 fold
CNC(=O)C[C@H](Cc1ccc(C#N)cc1)NC(=O)c1cc(-c2ccc(CN[C@H](C)c3ccc(C)cc3)o2)ccc1Cl	agonist response, antagonist	human cells	10 µM, M4 antagonist	–	inhibition	31%
CC(C)Cn1c(SCC(=O)N2CCc3ccccc3C2)nc2cc(Cl)ccc2c1=O	ligand displacement, radioligand	–	10 µM	–	inhibition	-6%
CCCCOc1ccc(C(=O)OCC[N+]2(C)CC=CCC2)cc1 (stereo not shown)	–	membranes	1 µM, 15 h, no carbachol	relative to: control	basal binding	1.2 ± 0.07 fold
C=CCn1c(=O)c2ccccc2n2c(SCC(=O)OC)nnc12	receptor activation, agonist	–	concentration not given, 16 h	–	Emax	119 ± 4%
O=C1c2sc(-c3ccc(N4CCC(F)C4)nc3F)nc2CCN1c1cccnc1 (stereo not shown)	ligand displacement, radioligand	–	1 µM	–	inhibition	-7%

Repeated from above:
SMILES	test	system	conditions	how to read	quantity	value
COc1ccc(C(=O)Nc2c(-c3cccs3)nc3ccccn23)cc1	ligand displacement, radioligand	–	10 µM	–	inhibition	< 50%
